Assay results gathered from unrelated publications.
Parts stem from different laboratories: compare values within a part only.

Set 1 — method: protein binding microarray; form: double-stranded DNA, one strand shown; matrix: in vitro; concentration: not given; reference: not given; reading: higher = stronger binding
Target: Histone acetyltransferase KAT6A, both winged helices, GST fusion (KAT6A, Homo sapiens, UniProt Q92794, residues 1-181)
Notes: 8-mer, flanks averaged, mean of 2 arrays, mostly near background
Target sequence (chain): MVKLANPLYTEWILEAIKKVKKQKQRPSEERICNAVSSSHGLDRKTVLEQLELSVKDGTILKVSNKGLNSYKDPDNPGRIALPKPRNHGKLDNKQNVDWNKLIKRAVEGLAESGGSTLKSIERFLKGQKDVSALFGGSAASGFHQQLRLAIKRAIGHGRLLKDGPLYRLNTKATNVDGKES
| Oligonucleotide | E-score |
| --- | --- |
| CAGTATCA | -0.0747 |
| GTACAGTA | -0.143 |
| CAATTGGC | -0.0533 |
| GCGCAGTA | 0.251 |
| CCACGGGA | 0.206 |
| GGTTCATA | 0.0688 |
| AACGTCGT | 0.17 |
| ACATTCAG | -0.027 |
| ACCATTGG | -0.143 |
| CTGACCCC | -0.119 |
| GACGGAGA | 0.251 |

Set 2 — method: aptamer microarray, sandwich; form: DNA with 2'F-ANA; matrix: in vitro; concentration: 200 nM; added: Cy3 exosite-II aptamer, 400 nM; reading: higher = stronger binding; oligonucleotide: GGTTGGTGTGGTTGG
Target: Prothrombin, mature alpha-thrombin (F2, Homo sapiens, UniProt P00734)
Notes: whole 15-mer aptamer, many near background
| Modification | mean fluorescence intensity [a.u.] |
| --- | --- |
| 2'F-ANA at 2 3 4 9 10 12 13 | 251 |
| 2'F-ANA at 1 2 4 6 8 9 12 | 252 |
| 2'F-ANA at 2 3 5 6 7 | 99.6 |
| 2'F-ANA at 1 2 3 6 7 8 10 11 12 13 14 | 56.7 |
| 2'F-ANA at 1 4 6 7 8 10 11 14 15 | 51.9 |
| 2'F-ANA at 1 3 6 11 12 14 15 | 91.9 |
| 2'F-ANA at 1 4 9 12 15 | 246 |
| 2'F-ANA at 4 6 8 10 11 14 | 76.3 |
| 2'F-ANA at 3 4 5 6 7 10 11 12 13 14 15 | 51.1 |

Set 3 — method: universal PBM; form: double-stranded DNA, one strand shown; matrix: in vitro; concentration: 600 nM; reading: higher = stronger binding
Target: Sal-like protein 4, full length isoform A (SALL4, Homo sapiens, UniProt Q9UJQ4, residues 1-1053)
Sequence of UniProt Q9UJQ4 (whole entry, looked up): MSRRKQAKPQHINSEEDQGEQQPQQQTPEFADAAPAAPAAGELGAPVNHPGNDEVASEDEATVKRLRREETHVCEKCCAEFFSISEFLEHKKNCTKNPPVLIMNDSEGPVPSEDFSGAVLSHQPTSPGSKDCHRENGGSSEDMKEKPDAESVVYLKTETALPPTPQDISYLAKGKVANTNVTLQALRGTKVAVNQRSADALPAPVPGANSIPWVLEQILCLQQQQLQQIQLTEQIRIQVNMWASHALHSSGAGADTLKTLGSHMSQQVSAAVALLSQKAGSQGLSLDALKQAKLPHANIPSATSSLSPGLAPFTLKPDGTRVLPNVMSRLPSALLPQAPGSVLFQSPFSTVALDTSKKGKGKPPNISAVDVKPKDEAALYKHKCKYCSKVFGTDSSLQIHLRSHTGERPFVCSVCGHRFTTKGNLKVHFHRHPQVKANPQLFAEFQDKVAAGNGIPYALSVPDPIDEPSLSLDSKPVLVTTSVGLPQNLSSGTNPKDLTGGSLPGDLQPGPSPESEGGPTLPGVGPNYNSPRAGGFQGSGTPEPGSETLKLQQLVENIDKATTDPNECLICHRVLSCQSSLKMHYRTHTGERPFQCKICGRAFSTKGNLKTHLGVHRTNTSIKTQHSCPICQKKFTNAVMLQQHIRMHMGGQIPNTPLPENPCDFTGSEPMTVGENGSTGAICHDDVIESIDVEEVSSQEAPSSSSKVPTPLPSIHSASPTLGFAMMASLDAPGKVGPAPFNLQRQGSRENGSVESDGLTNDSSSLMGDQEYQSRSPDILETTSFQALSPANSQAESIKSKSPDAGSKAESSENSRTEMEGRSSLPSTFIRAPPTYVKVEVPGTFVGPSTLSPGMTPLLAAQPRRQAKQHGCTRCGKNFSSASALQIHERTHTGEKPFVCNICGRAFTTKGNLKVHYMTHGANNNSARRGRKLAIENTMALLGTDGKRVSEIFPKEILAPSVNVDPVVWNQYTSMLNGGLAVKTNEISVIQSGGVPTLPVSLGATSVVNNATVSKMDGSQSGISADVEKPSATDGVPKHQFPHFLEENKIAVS
Notes: 8-mer, flanks averaged, mean of replicates
| Oligonucleotide | E-score |
| --- | --- |
| TAAGACTA | 0.106 |
| CAAGTCCA | 0.0149 |
| CCAGCCGG | -0.313 |
| CCATACGG | -0.0993 |
| AATTGGAT | 0.228 |
| GAATTTAC | 0.244 |
| GAGGTGCA | -0.206 |
| CGTACCCA | -0.134 |

Other studies, line by line
| Molecule | target | assay | system | conditions | how to read | measurement | result |
| --- | --- | --- | --- | --- | --- | --- | --- |
| PhoQ, residues 284 288 289 292 302 303 TLSLKA | PhoP, residues 12 14 15 18 19 VQALL (Escherichia coli, UniProt P23836) | Sort-seq, item: YFP reporter | E. coli | PhoQ-PhoP variant library, added: 10 µM Mg2+ | reference: high Mg2+ state, higher = stronger signaling | fold induction | 36.8 |

Excerpt of the above (set 3):
| Oligonucleotide | E-score |
| --- | --- |
| GAGGTGCA | -0.206 |
| CCATACGG | -0.0993 |
